Experimental data collected from several papers.
Compare with care: the assays were run in different laboratories. “And” joins repeats or separate records; there may be more than shown. Numbers after ± are the reported error. Values after ≈ are worked out from the molar mass of the structure shown.

Compound | test | system | setting | how to read | measurement | result
Cc1cn(-c2cc(NC(=O)c3ccc(C)c(Nc4nccc(-c5cccnc5)n4)c3)cc(C(F)(F)F)c2)cn1 |  | Alzheimer's disease patients | dose not given, baseline, group mean | direction not given | ADCS-ADL score | 57.8 ± 12.2
Cn1cc(Nc2nccc(-c3ccc4c(c3)CN(C3COC3)CC[C@H]4NC(=O)c3cn(C(C)(C)C)nn3)n2)cn1 | item: lymphotoxin β receptor signaling | splenic B cells, mice | 30 mg/kg, IgD-activated in vivo | relative to: vehicle, direction not given | pathway activation z-score | 2.84
C[C@@H](NC(=O)c1ccc(C#Cc2cccc(F)c2)cn1)C(C)(C)O | field recording | rat hippocampal slice CA3 | 10 µM, with: MTEP 10 µM, 10 min pretreatment | relative to: baseline | spontaneous population spike amplitude | 107 ± 10.8%
[131I-].[Na+] |  | human, papillary thyroid carcinoma | concentration not given, high-dose radioiodine therapy |  | patients with improved disease control | 85%
C[C@H]1O[C@@H](O[C@H]2CC[C@@]3(C)[C@@H](CC[C@]4(C)[C@@H]3C=C[C@]35OC[C@@]6(CCC(C)(C)C[C@H]63)[C@@H](O)C[C@]54C)[C@]2(C)CO)[C@H](O)[C@@H](O[C@@H]2O[C@H](CO)[C@@H](O)[C@H](O)[C@H]2O)[C@H]1O |  | mouse, ethanol-fed, hepatic SIRT1 knockdown, plasma | dose not given, 5 h, high dose |  | AST activity | 67.6 U/L and 48.1 U/L and 67.3 U/L and 71.1 U/L and 87.3 U/L and 75.6 U/L
Cc1nc(Nc2ccc(CC(=O)O)cc2)nc(Nc2ccc(F)c(C(F)(F)F)c2)c1C |  | mice, chronic ethanol plus binge, liver | intraperitoneal, 0.3 mg/kg daily, ethanol diet 4 weeks, dosed last two | relative to: vehicle | TUNEL-positive cells | decreased
CCSc1nc2ccccc2n1Cc1nnc(-c2ccc(Cl)cc2)o1 | relaxation | isolated rabbit jejunum | spontaneous contractions |  | EC50 | 0.26 ± 0.21 µg/mL (≈ 0.701 µM)
CN1CCN(S(=O)(=O)c2cc([N+](=O)[O-])ccc2N(CCOS(C)(=O)=O)CCOS(C)(=O)=O)CC1 |  | NSG mice, sample CG PDX | intraperitoneal, 25 mg/kg weekly x3 | relative to: vehicle | EFS delay (T-C) | 26.6 days
CCSc1nc2ccccc2n1Cc1nnc(-c2ccccc2OC)o1 | relaxation, calcium antagonist | isolated rabbit jejunum | with: 80 mM K+ contraction |  | EC50 | 0.49 ± 0.15 µg/mL (≈ 1.34 µM)
Oc1ccc(N=Nc2ccc(-c3nc4ccccc4s3)cc2)cc1CN(Cc1ccccn1)Cc1ccccn1 | ABTS radical scavenging |  | unit not given | relative to: Trolox | TEAC | > 2
CCSc1nc2ccccc2n1Cc1nnc(-c2ccc(F)c(OC)c2)o1 | relaxation | isolated rabbit jejunum | spontaneous contractions |  | EC50 | 0.28 ± 0.21 µg/mL (≈ 0.728 µM)
CCCCC1(CCCC)CN(c2ccccc2)c2cc(SC)c(OCC(=O)N[C@@H](C(=O)NCC(=O)O)c3ccccc3)cc2S(=O)(=O)C1 | item: LDL cholesterol | human, serum | 15 mg once daily, day 8 |  | serum LDL-C | 77.5 mg/dL
Clc1cc2c(cc1Cl)Oc1cc(Cl)c(Cl)cc1O2 | RNA-Seq, item: Ptgis | female Sprague-Dawley rat, liver | dose not given | relative to: vehicle | mRNA level | 5.3 fold
O=c1c(O)c(-c2ccc(O[C@@H]3O[C@H](CO)[C@@H](O)[C@H](O)[C@H]3O)c(O)c2)oc2cc(O)cc(O)c12 | Cu2+ reduction, CUPRAC |  | 30 µg/mL |  | absorbance | 0.519 ± 0.046
CNC(=O)c1c(C)oc2cc(Oc3ccnc4cc(OCCN5CCOCC5)ccc34)ccc12 | item: soluble VEGFR-2 | patients, plasma | 6 mg twice daily, cycle 2 day 1 |  | decrease | 42%
CC[C@H](C)[C@@H]1NC(=O)[C@@H]2CCCN2C(=O)[C@H](CC(C)C)NC(=O)[C@H](CC(C)C)NC(=O)CNC(=O)[C@@H](NC(=O)[C@@H](NC(=O)[C@H](CC(=O)O)NC(=O)CNC(=O)[C@@H](NC(=O)[C@H](C)NC(=O)CNC(=O)[C@H](CCCCN)NC(=O)[C@H](CC(C)C)NC(=O)[C@H](CC(C)C)NC(=O)[C@H](CCCCN)NC(=O)CNC(=O)[C@@H](NC(=O)[C@@H](N)CC(C)C)C(C)C)C(C)C)C(C)C)CSSC[C@@H](C(=O)O)NC1=O | RNA-seq, item: Irgc1 | mouse, traumatic brain injury model, frontal cortex and hippocampus | dose not given | relative to: TBI alone | log2 fold change | -4.65
Cc1n[nH]cc1-c1cc2nc([C@@H]3CC4CCN3CC4)[nH]c(=O)c2s1 |  | mouse COLO 205 xenograft | oral, 20 mg/kg twice daily, 7 days after dosing end, 28 days |  | tumour volume | 884 ± 289 mm3
C[C@]1(CO)Cc2ncn(-c3ccc(C#N)c(Cl)c3)c2C(=O)O1 |  | Chinese subjects | 20 mg single dose |  | urinary sodium excretion 0-24 h | 163 mmol
c1csc(-c2ccc(-c3cccs3)s2)c1 |  | C57BL/6J mouse, diet-induced obese | intraperitoneal, 5 mg/kg daily, 336 h |  | liver weight | 1.91 ± 0.21 g
CCOc1cccc(-c2nnc(Cn3c(SCC)nc4ccccc43)o2)c1O | relaxation | isolated rabbit jejunum | spontaneous contractions |  | EC50 | 0.16 ± 0.01 µg/mL (≈ 0.404 µM)

For quick reference, copied from above:
Compound | test | system | setting | how to read | measurement | result
c1csc(-c2ccc(-c3cccs3)s2)c1 |  | C57BL/6J mouse, diet-induced obese | intraperitoneal, 5 mg/kg daily, 336 h |  | liver weight | 1.91 ± 0.21 g
CN1CCN(S(=O)(=O)c2cc([N+](=O)[O-])ccc2N(CCOS(C)(=O)=O)CCOS(C)(=O)=O)CC1 |  | NSG mice, sample CG PDX | intraperitoneal, 25 mg/kg weekly x3 | relative to: vehicle | EFS delay (T-C) | 26.6 days
